{"data": "Results of several laboratories", "note": "Protocols differ between the studies behind these lines."}
{"SMILES": "CN1CC[C@@H](c2c(O)cc(O)c3c(=O)cc(-c4ccc(C(F)(F)F)cc4Cl)oc23)[C@@H]1CO", "assay": "refers to: Fatigue", "system": "relapsed or refractory haematological malignancies", "setting": "oral, dose not given, grade ≥3", "quantity": "adverse event incidence", "value": "0%"}
{"SMILES": "C=CCNc1c(O)cc2c(O)c1C[C@@H](C)C[C@H](OC)[C@H](O)[C@@H](C)/C=C(\\C)[C@H](OC(N)=O)[C@@H](OC)/C=C\\C=C(/C)C(=O)N2", "system": "unresectable or metastatic STS, GIST, other", "setting": "intravenous, 90 mg/m^2", "quantity": "patients with myalgia TEAE", "value": "17%"}
{"SMILES": "COc1cc2c(Oc3ccc4[nH]c(C)cc4c3F)ccnc2cc1OCC1(N)CC1", "system": "paediatric refractory sarcoma patients", "setting": "12 mg", "quantity": "grade 3 mouth ulcer", "value": "0%"}
{"SMILES": "COc1cccc(-c2ccc(CN3CCCC(c4nc5ccc(C)cc5c(=O)[nH]4)C3)cc2)c1 (stereo not shown)", "tested on": "Vero-E6", "assay": "CellTiter-Glo ATP", "setting": "72 h, second round 5-point", "scale": "reference: DMSO 0%, hyamine -100%, more negative, more toxic", "quantity": "maximum response", "value": "6.16%"}
{"SMILES": "CO[C@H]1C[C@@H]2CC[C@@H](C)[C@@](O)(O2)C(=O)C(=O)N2CCCC[C@H]2C(=O)O[C@H]([C@H](C)C[C@@H]2CC[C@@H](OC(=O)NCCOCCOCCOCCOCCOCCOCCOCCOCCC(=O)N3CCc4cc(Cn5nc(-c6ccc7oc(N)nc7c6)c6c(N)ncnc65)ccc4C3)[C@H](OC)C2)C[C@@H](O)[C@H](C)/C=C(\\C)[C@@H](O)[C@@H](OC)C(=O)[C@H](C)C[C@H](C)/C=C/C=C/C=C/1C", "assay": "phase 1 dose escalation, refers to: nausea", "system": "advanced solid tumour patients", "setting": "intravenous, 10 mg weekly, any grade", "quantity": "TRAE incidence", "value": "50%"}
{"SMILES": "O=C1Nc2cc3[nH]nc(-c4ccncc4)c3cc2CN1Cc1ccccc1", "assay": "CTCAE v4.03", "system": "advanced solid tumour patients", "setting": "intravenous, 9.6 mg/kg, schedules 1/2", "quantity": "patients with increased GGT", "value": "33%"}
{"SMILES": "C=CC(=O)Nc1cc(Nc2nccc(Nc3cc(Cl)c(F)cc3C(C)(C)O)n2)c(OC)cc1N1CC[C@@H](N(C)C)C1", "system": "human patients", "setting": "oral, 300 mg, treatment-emergent adverse events", "quantity": "patients with decreased appetite", "value": "33.3%"}
{"SMILES": "O=C(c1ccc(F)c(F)c1Nc1ccc(I)cc1F)N1CC(O)([C@@H]2CCCCN2)C1", "system": "human", "setting": "oral, 1 mg/kg", "quantity": "onset day of headache DLT", "value": "23 days"}
{"SMILES": "CC(=O)c1c(C)c2cnc(Nc3ccc(C4CCN(CCS(C)(=O)=O)CC4)cn3)nc2n(C2CCCC2)c1=O", "system": "human, plasma", "setting": "oral, 150 mg, day 1 single dose", "quantity": "t1/2", "value": "8.65 h"}
{"SMILES": "CCN(CC)Cc1ccc(Nc2ccnc3cc(Cl)ccc23)cc1O", "tested on": "Vero-E6", "assay": "CellTiter-Glo ATP", "setting": "72 h, second round 5-point", "scale": "reference: DMSO 0%, hyamine -100%, more negative, more toxic", "quantity": "maximum response", "value": "-9.14%"}
{"note": "Excerpt of the above:"}
{"SMILES": "C=CCNc1c(O)cc2c(O)c1C[C@@H](C)C[C@H](OC)[C@H](O)[C@@H](C)/C=C(\\C)[C@H](OC(N)=O)[C@@H](OC)/C=C\\C=C(/C)C(=O)N2", "system": "unresectable or metastatic STS, GIST, other", "setting": "intravenous, 90 mg/m^2", "quantity": "patients with myalgia TEAE", "value": "17%"}
